Results collected from several papers.
A part holds a random share of what one study measured. “And” joins repeats or separate records; there may be more than shown.

Block 1 — organism: Arabidopsis thaliana; strain: Col-0
Structure (SMILES): C=CCN1C(=O)C(O)(C(=O)O)Oc2cc(F)ccc21 (stereo not drawn)
concentration | setting | hypocotyl length
100 µg/mL | seed germination, repetition mean | 1.35 cm
3.125 µg/mL | seed germination, repetition mean | 2.08 cm
25 µg/mL | seed germination, repetition mean | 1.71 cm
3.125 µg/mL | seed germination, single repetition | 2.07 cm and 2.09 cm and 2.1 cm and 2.03 cm
12.5 µg/mL | seed germination, repetition mean | 1.82 cm
6.25 µg/mL | seed germination, single repetition | 2.01 cm and 2.02 cm and 2.03 cm and 2.09 cm
100 µg/mL | seed germination, single repetition | 1.38 cm and 1.31 cm and 1.36 cm and 1.32 cm
50 µg/mL | seed germination, single repetition | 1.52 cm and 1.51 cm and 1.53 cm and 1.55 cm
50 µg/mL | seed germination, repetition mean | 1.55 cm

Block 2 — host: mouse, S. aureus infection; route: subcutaneous
SMILES: CCCCC[C@@H](O)CC(=O)N[C@H]1COC(=O)[C@H](CO)NC(=O)[C@H](Cc2ccccc2)NC(=O)[C@@H](Cc2c[nH]c3ccccc23)NC(=O)[C@@H](C(C)O)NC(=O)[C@H](CC(N)=O)NC(=O)[C@@H](C(C)C)NC(=O)[C@H](CC(C)C)NC(=O)[C@@H](Cc2ccc(O)cc2)N(C)C(=O)CNC(=O)[C@H](CO)NC(=O)[C@@H](CC(N)=O)NC1=O (stereo partly drawn)
dose | time | survival
30 mg/kg | day 1 | 100%
10 mg/kg | day 0 | 100%
30 mg/kg | day 0 | 100%
10 mg/kg | day 5 | 60%
60 mg/kg | day 5 | 100%

Block 3 — cell line: HCC1569; technique: in-cell western; item: CDK1 phospho-Thr14
Compound: Cc1ccc(O)c(C)c1-c1cnc2[nH]c(-c3cnc(N4CCC(CN5CCN(c6ccc(C(=O)NC7CCC(=O)NC7=O)c(F)c6)CC5)CC4)nc3)cc2c1C#N (racemic)
concentration | pCDK1 (Thr14) level
10000 nM | 128% and 134%
1111.11 nM | 113% and 122%
123.46 nM | 45.6% and 41%
3333.33 nM | 137% and 140%
370.37 nM | 61.8% and 63.3%
41.15 nM | 17.4% and 25.3%

Block 4 — effect on: metabolic stability; sample: liver microsomes
Structure (SMILES): Cn1cc(-c2cccc(CN3CCC4(CC3)COc3c4ccc4c3CN([C@H]3CCC(=O)NC3=O)C4=O)c2)cn1
host | time | compound remaining
monkey | 45 min | 42.4%
rat | 45 min | 76.4%
monkey | 15 min | 76.2%
human | 45 min | 79.8%
rat | 30 min | 83.1%
human | 30 min | 92%
mouse | 30 min | 87.4%
mouse | 0 h | 100%
human | 15 min | 96.5%
rat | 0 h | 100%
